# Experimental data from different studies.
# Each numbered part is a random draw from the data of one study; scales do not carry over between parts. Several values in a cell are separate wells, animals, samples, runs or records.
# Chain of UniProt Q99640 (whole entry, looked up): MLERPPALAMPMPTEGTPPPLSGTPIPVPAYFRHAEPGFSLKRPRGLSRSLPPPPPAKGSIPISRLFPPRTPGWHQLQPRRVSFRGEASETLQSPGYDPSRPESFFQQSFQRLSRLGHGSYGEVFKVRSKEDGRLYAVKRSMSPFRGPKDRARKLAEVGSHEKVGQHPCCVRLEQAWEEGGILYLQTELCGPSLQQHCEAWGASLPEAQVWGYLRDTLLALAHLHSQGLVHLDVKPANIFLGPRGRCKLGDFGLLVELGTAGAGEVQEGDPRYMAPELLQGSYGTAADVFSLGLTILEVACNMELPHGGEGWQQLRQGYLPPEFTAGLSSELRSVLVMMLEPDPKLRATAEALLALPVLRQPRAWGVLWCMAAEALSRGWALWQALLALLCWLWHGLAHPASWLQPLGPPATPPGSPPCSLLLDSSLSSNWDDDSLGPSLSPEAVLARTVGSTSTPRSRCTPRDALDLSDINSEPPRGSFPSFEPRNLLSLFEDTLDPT

# Set 1
# Structure (SMILES): C[C@@H]1CN(c2ccc(-c3cc(C(=O)NCCOCCOCCOCCOCCNC(=O)/C=C/c4[nH]cc(C(=O)N[C@@H](CC(N)=O)c5ccc(F)c(Cl)c5)c4-c4ccc(Cl)cc4F)ccc3F)cc2NC(=O)c2c[nH]c(=O)cc2C(F)(F)F)C[C@H](C)N1C
# Target: WD repeat-containing protein 5 (WDR5, Homo sapiens, UniProt P61964)
# Read-out: thermal unfolding
# Technique: differential scanning fluorimetry
# Tested at: 5.5 µM
# Direction: higher = more unfolded
setting,SYPRO Orange fluorescence [a.u.]
51 °C,16700
26.2 °C,13000
47.6 °C,15800

# Single results of other studies
SMILES,target or system,test,test system,setting,how to read,quantity,value
"Cc1ccc(O)c(C)c1-c1cnc2[nH]c(-c3cnc(N4CCC5(CC4)CC(N4CCN(c6ccc(N[C@H]7CCC(=O)NC7=O)cc6F)CC4)CO5)nc3)cc2c1C#N (single isomer, unassigned)",ABL1 non-phosphorylated human,KINOMEscan,,1000 nM,relative to: control,binding remaining,67%
O=C(O)C1(O)Oc2cc(F)ccc2N(Cc2ccccc2)C1=O (stereo not drawn),Arabidopsis thaliana,,Col-0,"3.125 µg/mL, seed germination, repetition mean",,hypocotyl length,1.89 cm
Cc1ccc(O)c(C)c1-c1cnc2[nH]c(-c3cnc(N4CCC(CN5CCN(c6cc7c(cc6F)c(N6CCC(=O)NC6=O)nn7C)CC5)CC4)nc3)cc2c1C#N,,,"female CD-1 mouse, plasma","oral, 20 mg/kg",,half-life,2.3 h
Cc1ncsc1-c1ccc(C(CO)NC(=O)C2CC(O)CN2C(=O)C(C(C)C)n2cc(-c3ccc(COc4c(-c5c(C)c(F)cc6[nH]ncc56)c(C5CC5)cc5c(N6CC7CC6CN7)nc(OC6CCOCC6)nc45)cc3)nn2)cc1 (stereo not drawn),,,"mouse PK-59 xenograft, plasma","intravenous, 30 mg/kg, 48 h",,plasma concentration,14.4 ng/mL
Cc1ccc(O)c(C)c1-c1cnc2[nH]c(-c3cnc(N4CC5(CC(CN6CCN(c7ccc(NC8CCC(=O)NC8=O)cc7F)CC6)C5)C4)nc3)cc2c1C#N (stereo not drawn),HCC1569,"CDK1 Thr14 phosphorylation, in-cell western",,12.35 nM,lower = stronger inhibition,phospho-CDK1 (Thr14) level,42.1 a.u. and 50.2 a.u.
Cc1ccc(O)c(C)c1-c1cnc2[nH]c(-c3cnc(N4CCC5(CC4)CC(CN4CCN(c6ccc(NC7CCC(=O)NC7=O)cc6F)CC4)C5)nc3)cc2c1C#N (stereo not drawn),"PKMYT1 (Homo sapiens, UniProt Q99640)","cell-free assay, TR-FRET",,,,IC50,5.3 nM

# Some of these lines once more (set 1):
setting,SYPRO Orange fluorescence [a.u.]
51 °C,16700
